# Measured values gathered from unrelated publications.
# Compare with care: the assays were run in different laboratories. Numbers after ± are the reported error.
# Cell line: K562
SMILES,assay,conditions,endpoint,value
COc1cc(C(=O)c2sc3ccccc3c2N)cc(OC)c1OC,cell growth or viability,,IC50,0.53 µM
COc1cccc(-c2cc(-c3ccccc3O)nc(N)n2)c1,"cell growth or viability, MTT",48 h,IC50,82 µM
COc1ccc2c(NC(=O)CCl)c(C(=O)c3cc(OC)c(OC)c(OC)c3)oc2c1,flow cytometry,IC50,sub-G1 cells,13 ± 2%
Nc1nc(-c2ccccc2)cc(-c2ccccc2O)n1,"cell growth or viability, MTT",48 h,IC50,57.4 µM
COc1ccc2c(NC(=O)CI)c(C(=O)c3cc(OC)c(OC)c(OC)c3)oc2c1,flow cytometry,IC50,sub-G1 cells,33 ± 4%
COc1cccc(-c2cc(-c3ccc(Br)cc3)nc(N)n2)c1,"cell growth or viability, MTT",48 h,IC50,57.7 µM
C(=C\c1ccccc1)/c1ccccc1,"cell growth or viability, ATP luminescence",24 h,IC50,500 µM
COc1ccc(-c2cc(-c3cccc(OC)c3)nc(N)n2)cc1,"cell growth or viability, MTT",48 h,IC50,8.77 to 57.7 µM
O=c1cc(-c2ccc(O)cc2)oc2cc(O)cc(O)c12,"cell growth or viability, ATP luminescence",24 h,IC50,350 µM
CC(C)C[C@H](NC(=O)[C@@H](O)[C@H](N)Cc1ccccc1)C(=O)O,aminopeptidase activity,added: Ala-AMC 50,IC50,2.2 µM
CNC(=O)c1cc(Oc2ccc(NC(=O)Nc3cc(C(C)(C)C)nn3-c3ccc4ncccc4c3)c(F)c2)ccn1,annexin V staining,"72 h, continuous exposure",threshold concentration for apoptosis,50 nM
O=C1c2cccc(O)c2C(=O)c2c(O)cc(CO)cc21,"cell growth or viability, ATP luminescence",24 h,IC50,309 µM
COc1cc(C(=O)c2sc3cc(C)ccc3c2N)cc(OC)c1OC,cell growth or viability,,IC50,0.006 µM
CCCCC[C@H](CC(=O)NO)C(=O)N[C@H](C(=O)N1CCC[C@H]1CO)C(C)C,aminopeptidase activity,added: Ala-AMC 50,IC50,1.46 µM
O=C(O)c1cc(O)c2c(c1)C(=O)c1cccc(O)c1C2=O,"cell growth or viability, ATP luminescence",24 h,IC50,380 µM

# Excerpt of the above:
SMILES,assay,conditions,endpoint,value
O=C(O)c1cc(O)c2c(c1)C(=O)c1cccc(O)c1C2=O,"cell growth or viability, ATP luminescence",24 h,IC50,380 µM
CNC(=O)c1cc(Oc2ccc(NC(=O)Nc3cc(C(C)(C)C)nn3-c3ccc4ncccc4c3)c(F)c2)ccn1,annexin V staining,"72 h, continuous exposure",threshold concentration for apoptosis,50 nM
